Assay results from different studies.
Each numbered part is a random draw from the data of one study; scales do not carry over between parts.

Block 1 — method: RNA Bind-n-Seq; molecule type: RNA; sample: in vitro; concentration: 365 nM; baseline: no-protein control; direction: higher = stronger binding
Target: RNA binding protein fox-1 homolog 2, RRM domain, GST-SBP tag (RBFOX2, Homo sapiens, UniProt O43251-10, residues 100-194)
Notes: natural RNA segment, single round, ends assumed
All sequences stand within: GGGAGUUCUACAGUCCGACGAUC … UGGAAUUCUCGGGUGCCAA
Residues (chain): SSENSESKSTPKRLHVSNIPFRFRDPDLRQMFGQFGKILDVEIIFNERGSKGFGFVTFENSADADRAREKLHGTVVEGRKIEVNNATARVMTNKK
Strand | RBNS enrichment (R)
AAUCAGAAACUCAUUUACAUAAUGUAAAAGUGAAUCUAAAUAAAUCAUGAUUUAAACAGUCUAAAAAUAGAUCCUGUCUCCUUUUUAGUCAAUGAUAAUAACCUAAGGGA | 0.292
UGCAGCUGGGCCCAGAACACCCAUGAUGAGGUUCACUGCGUCUACCCUGCACCUCGCACAGAACCAAGAGCCACCAGCCUCCUGAUGGCAGGGGCCUAGCCCUGGGCAUA | 0.777
UUUUGAGAUUAAAAAAAAUACUUCUAGCUUUAGCCAGGUGUGCAUGUUGCUGCCAUUUUGCAUUUUUGAAUCAUCUUGUGUAAUUGUCACCAUGAAAGUGUUACUCAGAA | 12.9
UCUAGACUGGUCUCAUCUCCAUUGCCUUAAUGCCAGGUGGCCCAGGAGUACCCAUGCACAGCAGCUGUGGGGUGUGGGCAUCUUCAGGUGGUGUUCUGGUAAAAUUGUUA | 0.461
CCAGCACUCAGGAGGCAGAGGCAGGUGGAUCUUCGAGAUCAAGGCCAGCCUGGUCUAUAGAGUGAGUUCCAGGACAGCAGAGAAACCCUUCCAAAAACUAAGGAAGGAAG | 0.286
AAGGGAGUCUUGUAAAGUUGCCGAGGGUAGGUUCAUCUCCAGGUUUCGGGAUUCCCAUCCGUCCUGGCGAUCCUGCCAGCAGUGGGUGGGCAGCCUGAGCUCCCUCGGGC | 0.244
AAGUUAUAAGAACGUACACAGUGAAAGGAGUACAAGAGCAGUGUAAAGAAAUAGUUUUCUUAGAUAUUUGUCACAUACUACUUAAAUAAAAUUCUCUUGGGUUUAAUCUU | 0.43
AGAGCCCACUUACUCCUCCUCGUUCUAGGACACGGUCAUCUUUCCUUAGGAAAUUAAAAUGCUUCAUAUUAUCUGGGCAUGGUGGUGCACCCCUGUAGUCUCAGAACUCU | 0.393
GCAGUUGGGUCAGAGCAUGACCUUUAAGAUAGCCUCUCUCAGCUAACAUAUUUAUGAAGAUGAGGCCUGGUGACCCAGCAGGUUCAUUGGAUACAUAAGAAAUGAGAAUU | 6.81
UGGUUAUGUUACAAAUUCAUAUUCUGUUACUACAGUAAACGUUAAGAGUUUUAAACAGUUAAGAUUGUACAAUUUUUCUUCUUUUCUAUAUUACAAGGGCCCCAGUGUUA | 0.617
CAUUGCCUGCACCUGAAACAGCCACCCACAUACACACUCUGGUAGGUCAGGGGGUCCCCGACAAUCCUGGACAAUCCUGAGCAGAAUACCUCCUGUUACAGUGUCUCUUG | 0.555
AUAUGUGUCCUUGACGUGCAAGCUUUGUAAAACCCCAUCCCCGCUUAGGUGCGAGGCAUCACCUUCUCACAAGUGUUUAGUUUCUUUUAACCACAAGUAUCAUUCUUGGG | 0.734

Block 2 — method: competition protein-binding microarray; molecule type: double-stranded DNA, one strand shown; sample: in vitro; concentration: 2 µM; with: Pho4 competitor, 0.05 µM; direction: higher = stronger binding; all sequences stand within: … GTCTTGATTCGCTTGACGCTGCTG
Target: Centromere-binding protein 1, full length, His-tagged (CBF1, Saccharomyces cerevisiae, UniProt P17106, residues 1-351)
UniProt P17106, sequence (whole entry, looked up): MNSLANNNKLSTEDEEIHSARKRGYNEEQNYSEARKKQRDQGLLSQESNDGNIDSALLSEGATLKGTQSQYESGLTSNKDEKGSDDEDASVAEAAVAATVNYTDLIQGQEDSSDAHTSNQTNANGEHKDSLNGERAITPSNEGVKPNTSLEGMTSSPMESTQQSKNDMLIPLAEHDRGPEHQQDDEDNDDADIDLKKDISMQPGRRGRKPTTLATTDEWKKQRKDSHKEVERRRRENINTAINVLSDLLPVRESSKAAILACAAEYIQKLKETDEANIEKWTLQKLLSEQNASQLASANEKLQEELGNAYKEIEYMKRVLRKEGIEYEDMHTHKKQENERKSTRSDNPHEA
Notes: whole 60-bp probe, lowest competitor level
Strand | fluorescence intensity [a.u.]
CTAACGAAGGTTTGCATCGTGGGTGACAAGCCAAGT | 57.4
TACGACGAGACTTGGCATGATCAAAGTGCAAAAGAA | 71.9
CTTCTGTAAATTTGAATTGTGGGTGGACGCGCCCCG | 83.8
AAGGTCTATGTTCTTCACGTGATGGAGAGGACTATA | 2510
CGGGGTTAAGTTTTTCACGTGAGATGCTTGCAGCAG | 908
CATTCGGTTAATCAACACGTGGAAGTCCCAGGTTCT | 705
TGCGCAACAACTTGAAGTGTGGGTGTATGTCTAGAA | 71.7
GCTTTCTAAAGCCGTCACGGCAATAGAAAATTGCGC | 87.6
ACATAGTCTGATCGGCACGTGAGAAAGTGCCATACC | 1120
AAATTACTAAGTTGAGACGTGGGTGACGCCGTATGA | 64.2
CCATGCCCGGGTACCCACGGCTCCTCGGAGGCCGGG | 50.7
AAGTTTGCTGCCCTTCATGTGCTTTTATGTATGCTT | 74.9
ACTGGGCGCAACAAACACCTGATGTAACTCCTACCC | 156
CTTTCCCGATCTTGAGTCGTGGGTGTAGCACATTTG | 69.1
AACCACTCGTCGAGTCACACGGAGAGTTGGCCATGA | 72.4
TGAAATGGAATCGACCACGGGTCTTGTTGAAAGCAG | 95.4
TGAAACATTTTTCAACGCGTGTAACAATTTGCATCT | 103
CTTTCCCGATCTTGTCCTGTGGGTGTAGCACATTTG | 84.2
GTCTTGTCTCATTTTCACGTGATTTTCCCCACTTCA | 2430
AAGCGGCCGTTGGCGGCCGTGGGTAAGTTATGCATG | 52.2
CTAACGAAGGTTTTTCACGTGAGATACAAGCCAAGT | 1040
TCAAGTAGAATACTACACGTGCAAACGGTAGCAAGC | 1150
CATTGGTGTCGTCATCACCTGATGCAGTTGGAGTCG | 557
TGCGAGATATACCATCACGTGAGGTGGATTTGATCT | 4760
CGGGCCGTTCCGCGGGATGTGACGCTTCGCAAGTTA | 58.6

Block 3 — method: protein-binding microarray; molecule type: double-stranded DNA, one strand shown; sample: in vitro; concentration: 250 nM; notes: 60-bp whole probe; with: salmon DNA 0.4 mg/ml; baseline: random background probes; direction: higher = stronger binding; all sequences stand within: GCCTAGCAC … GTCTTGATTCGCTTGACGCTGCTG
Target: Interferon regulatory factor 7, full length, phosphomimetic (IRF7, Homo sapiens, UniProt Q92985, residues 1-503, S101K/S471D/S472D/S475D/S476D/S477D/S483D/S484D/S487D)
UniProt Q92985, sequence (whole entry, unmodified, looked up): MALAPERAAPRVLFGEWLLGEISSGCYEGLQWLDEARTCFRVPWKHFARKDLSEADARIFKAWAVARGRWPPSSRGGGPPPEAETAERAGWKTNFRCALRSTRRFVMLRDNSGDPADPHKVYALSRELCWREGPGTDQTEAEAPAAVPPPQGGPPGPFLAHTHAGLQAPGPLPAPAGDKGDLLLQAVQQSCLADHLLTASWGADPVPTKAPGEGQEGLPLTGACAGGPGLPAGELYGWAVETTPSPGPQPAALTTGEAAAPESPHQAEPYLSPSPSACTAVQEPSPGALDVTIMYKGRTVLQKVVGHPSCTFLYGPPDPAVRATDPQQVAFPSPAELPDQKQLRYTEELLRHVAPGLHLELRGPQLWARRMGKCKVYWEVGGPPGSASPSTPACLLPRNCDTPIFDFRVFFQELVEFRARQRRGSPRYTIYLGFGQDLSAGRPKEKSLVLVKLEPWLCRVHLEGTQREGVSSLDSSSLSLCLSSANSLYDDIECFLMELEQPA
Strand | log fluorescence [z-score]
TTAGATTTCGGGACTGGCTTAGTGCTA | -0.124
GACTATATCGGGTTTCGAGACGTGCTA | 3.16
TTAGGTCTTGGTTTCGGTTAGTGCTAG | 8.74
TTAGAACTGAGTATCTATTAGTGCTAG | -0.0222
ATAGGTTTCGGACTGGGTTAGTGCTAG | 3.77
GATGGACTGGACACTGGGGACGTGCTA | -0.773
GACGGTATCGGGTATCAGGACGTGCTA | 0.192
AATACCTTCGAGTCTGCAACAGTGCTA | 0.0775
TCACCTCTCTCTTTCCAACTGTGCTAG | 0.547
TTAGGTTTCCACACTGGGTTAGTGCTA | 0.944
TTAGATATTAAACTGATAGGGTGCTAG | 0.147
TCAGGTTTCGGTATCGGTTAGTGCTAG | 11.6
GACGGACTGAGTTTCGAGACGTGCTAG | 3.03
TCAATCTTCATTGTCATACTGTGCTAG | 0.203
TCAGATTTCAGGAATTGAACTGTGCTA | -0.0798
TCATATATGCATGTAAAACTGTGCTAG | 0.278

Block 4 — method: RNA Bind-n-Seq; molecule type: RNA; sample: in vitro; concentration: 1 µM; notes: whole 134-nt RNA, ends assumed; with: 150 mM KCl; baseline: input library; direction: higher = stronger binding
Target: Ras GTPase-activating protein-binding protein 1, RRM domain (G3BP1, Homo sapiens, UniProt Q13283)
UniProt Q13283, sequence (whole entry, looked up): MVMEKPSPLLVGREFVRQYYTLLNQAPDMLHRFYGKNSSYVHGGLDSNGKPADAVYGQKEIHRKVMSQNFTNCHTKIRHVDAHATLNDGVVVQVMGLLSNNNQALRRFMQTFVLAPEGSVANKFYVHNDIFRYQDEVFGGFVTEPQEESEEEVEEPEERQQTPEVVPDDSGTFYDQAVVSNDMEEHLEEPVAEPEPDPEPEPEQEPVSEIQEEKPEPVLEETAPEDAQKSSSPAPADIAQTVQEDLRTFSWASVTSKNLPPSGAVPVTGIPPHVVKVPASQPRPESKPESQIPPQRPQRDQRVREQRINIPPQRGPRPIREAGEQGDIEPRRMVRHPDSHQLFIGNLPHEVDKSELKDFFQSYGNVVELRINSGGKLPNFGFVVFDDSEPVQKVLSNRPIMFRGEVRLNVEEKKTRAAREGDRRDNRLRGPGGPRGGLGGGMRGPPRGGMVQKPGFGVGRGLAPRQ
All sequences stand within: GGGAGUUCUACAGUCCGACGAUC … UGGAAUUCUCGGGUGUCAAGG
Strand | log2 enrichment
ACCAUGCAGGUGGGCAUCUUUGGGAAGUGGGGCAAGGGGGGGAUAGGUAGGGGGGUAACACUUUGGGAACAGGUGGUCCCAGGUCGUUUC | 0.935
UCAAGUCCUGUGCUACACAUCGUAUGUACCGAAUCGGGGAGGGGAGGGGUGGGGAAAGUAUUAUGUUACGCCGUUCGGAUCUGCACUUCC | 1
CACAGACAACACGCACCCACACAGACACAGAGGGAAGGGGUUGGGAUGGGGACAGGGUGCACAGCCGGGCGGGGUAGGACCCCAGCCCCU | 0.144
UGGCCCUGGUGGCAUGCGGGGAGGAAGAGGUGGCCUCAUGGAUCGUGGUGGUCCCGGUCGAAUGUUCAGAGGUGGCCGUGGUGGAGACAG | 0.695
CACAGACAACACGCACCCACACAGACACAGAGGGAAGGGGUUGGGAUGGGGACAGGGUGCACAGAAAGGCGGGGUAGGACCCCAGCCCCU | -0.066
AGUCCUGUGCUACACAUCGUAUGUACCGAAUCGGGGCCCCGGGGCCCCGGGCCCCGGGAAAGUAUUAUGUUACGCCGUUCGGAUCUGCAC | -1.34
GUCCUGUGCUACACAUCGUAUGUACCGAAUCGGGGUUUUUGGGGUUUUUGGGGAGGGGAAAGUAUUAUGUUACGCCGUUCGGAUCUGCAC | 0.941
UUAAGUUGAAGGAGCGCUACCGCAACGUGCUGGACACCAUGUUCGAGCUGCUGCCCCGGAUGGCCAGGUACUGCCAGCCCCCACCCUGGC | -0.424
CUCAAGUCCUGUGCUACACAUCGUAUGUACCGAAUCGGAAAGGAGGAAAAAGGAAAGUAUUAUGUUACGCCGUUCGGAUCUGCACUUCCA | -0.144
AGUCCUGUGCUACACAUCGUAUGUACCGAAUCGGCCCCCGGCCCCCGGGCCCCCGGGAAAGUAUUAUGUUACGCCGUUCGGAUCUGCACU | -0.486
AAGUCCUGUGCUACACAUCGUAUGUACCGAAUCGGUUUUUGGUUUUUUUGGAAAGGAAAGUAUUAUGUUACGCCGUUCGGAUCUGCACUU | -0.193
UUCCUUUCCGUUGUGUGUUUUAAAGGUGUGUGCCCUCUUCCUGAUUCUGGAGAAAAAUGCCGGUCCGGAAGCAAGGUGAGAGUUUAUUCC | -0.101
CUCAAGUCCUGUGCUACACAUCGUAUGUACCGAAUCGGGUUUGGUUUGGUUUGGAAAGUAUUAUGUUACGCCGUUCGGAUCUGCACUUCC | -0.29
GUCCUGUGCUACACAUCGUAUGUACCGAAUCGGGGUGGGGUUUUUUUGGGGUUUGGGGAAAGUAUUAUGUUACGCCGUUCGGAUCUGCAC | 0.674

For quick reference, copied from above (block 1):
Strand | RBNS enrichment (R)
AAUCAGAAACUCAUUUACAUAAUGUAAAAGUGAAUCUAAAUAAAUCAUGAUUUAAACAGUCUAAAAAUAGAUCCUGUCUCCUUUUUAGUCAAUGAUAAUAACCUAAGGGA | 0.292
UGCAGCUGGGCCCAGAACACCCAUGAUGAGGUUCACUGCGUCUACCCUGCACCUCGCACAGAACCAAGAGCCACCAGCCUCCUGAUGGCAGGGGCCUAGCCCUGGGCAUA | 0.777
UUUUGAGAUUAAAAAAAAUACUUCUAGCUUUAGCCAGGUGUGCAUGUUGCUGCCAUUUUGCAUUUUUGAAUCAUCUUGUGUAAUUGUCACCAUGAAAGUGUUACUCAGAA | 12.9
UCUAGACUGGUCUCAUCUCCAUUGCCUUAAUGCCAGGUGGCCCAGGAGUACCCAUGCACAGCAGCUGUGGGGUGUGGGCAUCUUCAGGUGGUGUUCUGGUAAAAUUGUUA | 0.461
CCAGCACUCAGGAGGCAGAGGCAGGUGGAUCUUCGAGAUCAAGGCCAGCCUGGUCUAUAGAGUGAGUUCCAGGACAGCAGAGAAACCCUUCCAAAAACUAAGGAAGGAAG | 0.286
AAGGGAGUCUUGUAAAGUUGCCGAGGGUAGGUUCAUCUCCAGGUUUCGGGAUUCCCAUCCGUCCUGGCGAUCCUGCCAGCAGUGGGUGGGCAGCCUGAGCUCCCUCGGGC | 0.244
AAGUUAUAAGAACGUACACAGUGAAAGGAGUACAAGAGCAGUGUAAAGAAAUAGUUUUCUUAGAUAUUUGUCACAUACUACUUAAAUAAAAUUCUCUUGGGUUUAAUCUU | 0.43
AGAGCCCACUUACUCCUCCUCGUUCUAGGACACGGUCAUCUUUCCUUAGGAAAUUAAAAUGCUUCAUAUUAUCUGGGCAUGGUGGUGCACCCCUGUAGUCUCAGAACUCU | 0.393
